Measurements gathered from unrelated publications.
Each numbered part is a random draw from the data of one study; scales do not carry over between parts. Changes are numbered by the printed parent chain.

Block 1 — technique: universal PBM; form: double-stranded DNA, one strand shown; matrix: in vitro; concentration: 600 nM; direction: higher = stronger binding
Target: Sal-like protein 4, full length isoform A (SALL4, Homo sapiens, UniProt Q9UJQ4, residues 1-1053)
Chain of UniProt Q9UJQ4 (whole entry, looked up): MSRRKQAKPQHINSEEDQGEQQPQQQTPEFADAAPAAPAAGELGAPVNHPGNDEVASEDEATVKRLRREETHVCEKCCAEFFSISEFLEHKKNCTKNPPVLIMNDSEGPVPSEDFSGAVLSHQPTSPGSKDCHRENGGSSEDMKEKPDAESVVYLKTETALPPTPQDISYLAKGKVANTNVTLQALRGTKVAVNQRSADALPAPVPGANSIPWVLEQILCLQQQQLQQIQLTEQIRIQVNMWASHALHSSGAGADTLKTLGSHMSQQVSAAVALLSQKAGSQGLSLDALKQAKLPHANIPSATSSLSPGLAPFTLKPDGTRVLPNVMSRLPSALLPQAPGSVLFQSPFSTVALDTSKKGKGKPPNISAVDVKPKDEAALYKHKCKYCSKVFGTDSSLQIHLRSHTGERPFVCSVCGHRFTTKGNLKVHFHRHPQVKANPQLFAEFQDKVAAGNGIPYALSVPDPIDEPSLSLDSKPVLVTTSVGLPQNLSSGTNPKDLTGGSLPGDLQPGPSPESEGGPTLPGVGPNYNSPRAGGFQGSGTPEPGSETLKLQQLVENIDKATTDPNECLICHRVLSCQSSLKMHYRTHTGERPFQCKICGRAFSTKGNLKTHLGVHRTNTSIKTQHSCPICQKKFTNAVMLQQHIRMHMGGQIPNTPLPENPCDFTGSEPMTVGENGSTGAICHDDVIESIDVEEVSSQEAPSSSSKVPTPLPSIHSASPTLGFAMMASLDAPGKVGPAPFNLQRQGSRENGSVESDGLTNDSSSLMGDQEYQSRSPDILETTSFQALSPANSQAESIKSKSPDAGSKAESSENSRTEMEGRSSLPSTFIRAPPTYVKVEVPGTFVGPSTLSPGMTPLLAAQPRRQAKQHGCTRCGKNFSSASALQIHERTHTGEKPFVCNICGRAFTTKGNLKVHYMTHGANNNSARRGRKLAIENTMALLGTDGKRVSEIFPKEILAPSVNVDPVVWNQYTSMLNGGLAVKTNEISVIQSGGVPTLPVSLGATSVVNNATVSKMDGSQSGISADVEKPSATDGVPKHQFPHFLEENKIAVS
Setting: 8-mer, flanks averaged, mean of replicates
For `CTCCTCGA`, the E-score was -0.19.
For `CAAGCATG`, the E-score was 0.0209.
For `GCCCGAAA`, the E-score was -0.0699.
With `ACGCCTAG` the E-score was -0.0396.
With `CGCCACGC` the E-score was -0.335.
The E-score of `CACTTTAA` is reported as 0.212.
The E-score of `AGCCTAAT` is reported as 0.0651.

Block 2 — target: CCNA2, cyclin fold, Cln2 fusion (human); technique: yeast growth competition, sequencing; matrix: yeast; setting: strong parent motif; reference: not given; direction: higher = stronger binding
Parent: GMNC docking peptide (human); KNAKRNLSSEFAN
Under “normalised enrichment score”, `F11A` is recorded as 0.796.
`R5C`: “normalised enrichment score” 0.446.
Under “normalised enrichment score”, `A3Q` is recorded as 0.832.
For `E10F`, “normalised enrichment score” read 2.22.
`S9V`: “normalised enrichment score” 5.33.
Under “normalised enrichment score”, `R5L` is recorded as 0.15.

Block 3 — technique: RNA Bind-n-Seq; form: RNA; matrix: in vitro; concentration: 365 nM; reference: no-protein control; direction: higher = stronger binding
Target: RNA binding protein fox-1 homolog 2, RRM domain, GST-SBP tag (RBFOX2, Homo sapiens, UniProt O43251-10, residues 100-194)
Setting: natural RNA segment, single round, ends assumed
Target sequence (chain): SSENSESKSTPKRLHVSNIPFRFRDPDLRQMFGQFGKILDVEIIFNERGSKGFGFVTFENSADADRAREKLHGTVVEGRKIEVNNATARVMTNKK
`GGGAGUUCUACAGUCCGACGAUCUGUGAGAGACUUGUAGGAAUUUUUUUCUUCUCCUAGCGAAGUCAAAGCUCUCUCUGAAUGUACUGUGUGACAAUGCAUCAUGCAUGAACCUUCGGUCAGGGAUGUCGUUGUGGAAUUCUCGGGUGCCAA` — result for “RBNS enrichment (R)”: 0.962.
`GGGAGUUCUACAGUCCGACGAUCCCAAGUACUACACCUUAUUUGGUCGCAGCUACUGAGGGAUGAACGAAAGCCCCCUCUUCAACUCCUCUCACUUUUUAAAGCAUUGAUAUUAGUAUCUUCUCAGAUACAGAUGGAAUUCUCGGGUGCCAA`: “RBNS enrichment (R)” 0.626.
`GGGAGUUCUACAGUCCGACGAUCUGAGGGUGGCGUCUUUAGAGACAGGCACAUGGGCAGCCCUGUUCCCUUCGCCUCUACUGCGAGGCCUGGGGAGAUGUUGUUUUCAUGCUGCUUCCACCAUCACACUGGGGUGGAAUUCUCGGGUGCCAA`: “RBNS enrichment (R)” 0.255.
For `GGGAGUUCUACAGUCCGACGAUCACUUGUCUUGAAAACUGUGCAACUUUUUAAAGUAAAUUAUUAAGCAGACUGGAAAAGUGAUGUAUUUUCAUAGUGACCUGUGUUUCACUUAAUGUUUCUUAGAGCCAAGUUGGAAUUCUCGGGUGCCAA`, “RBNS enrichment (R)” read 0.291.
`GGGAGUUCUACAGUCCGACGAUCCCAAAUUUAAUACAUGUGAUUUGUGAUAUGUAGCUAAACUUAAUCCAGCUAAUGAAUAUUCUUCAUCUGUAACUUGUAGUAAAAUAGCUUUUACCUAACCCUUUUCCCAAUGGAAUUCUCGGGUGCCAA` — result for “RBNS enrichment (R)”: 0.65.

Single results of other studies
`PhoQ, residues 284 288 289 292 302 303 MLMVEA` gave a fold induction of 4.08 (PhoP, residues 12 14 15 18 19 AWHSL (Escherichia coli, UniProt P23836); Sort-seq, refers to: YFP reporter; E. coli; PhoQ-PhoP variant library, with: 10 µM Mg2+; reference: high Mg2+ state, higher = stronger signaling).

Repeated from above (block 1):
For `CAAGCATG`, the E-score was 0.0209.
For `GCCCGAAA`, the E-score was -0.0699.
The E-score of `CACTTTAA` is reported as 0.212.
